{"data": "Published values collected from several papers", "note": "Each line is one published result; not all experiments were run side by side."}
{"Molecule": "benzalkonium chloride", "target or system": "Escherichia coli", "test": "two-fold serial dilution", "test system": "ATCC 8739", "conditions": "dark or light not distinguished", "measurement": "MIC", "value": "> 640 µM"}
{"Molecule": "colistin", "target or system": "Escherichia coli", "test": "broth microdilution", "test system": "ATCC 25922", "measurement": "MIC", "value": "0.5 µg/mL"}
{"Molecule": "colistin", "target or system": "Escherichia coli", "test": "broth microdilution", "test system": "clinical isolate RKI-No_515/16", "measurement": "MIC", "value": "≤ 0.5 µg/mL"}
{"Molecule": "adenosylhomocysteinase", "test": "co-immunoprecipitation", "test system": "human RBC cytosol", "conditions": "unit not given, together with: Band 3 peptide 1-56 bait", "scale": "relative to: negative control", "measurement": "co-IP enrichment", "value": 0}
{"Molecule": "GGLQWIPRA", "target or system": "Jurkat T cells expressing 1G4 TCR", "test": "NFAT-eGFP reporter, flow cytometry", "test system": "peptide", "conditions": "concentration not given, HLA-A*02:01 NY-ESO system", "measurement": "reporter activation", "value": "0.23%"}
{"Molecule": "polymyxin B acetate", "target or system": "Escherichia coli", "test": "broth microdilution", "test system": "ATCC 19606", "conditions": "various colistin salts", "measurement": "MIC", "value": "0.06 µg/mL"}
{"Molecule": "colistin sulfate", "target or system": "Escherichia coli", "test system": "DSM 30083", "measurement": "MIC", "value": "0.125 µM"}
{"Molecule": "colistin", "target or system": "Escherichia coli", "test system": "ATCC 25922", "measurement": "MIC", "value": "0.25 µg/mL"}
{"Molecule": "SVWLRKETRV", "target or system": "human MAGI1-2/6 PDZ construct (MBP fusion)", "test": "automated holdup", "test system": "peptide, purified PDZ protein", "conditions": "concentration not given, unit not given", "scale": "relative to: biotin control resin, higher = stronger binding", "measurement": "binding intensity", "value": 0.878}
{"Molecule": "polymyxin B sulfate", "target or system": "Escherichia coli", "test": "broth microdilution", "test system": "ATCC 13883", "conditions": "various colistin salts", "measurement": "MIC", "value": "0.125 µg/mL"}
{"Molecule": "gentamicin sulfate", "target or system": "Escherichia coli", "test system": "ATCC 25922", "conditions": "18 h, 37 °C, together with: LED light 1.57 mW, 10 min", "measurement": "MIC", "value": "0.125 µM"}
{"Molecule": "polymyxin B", "target or system": "Escherichia coli", "test": "broth microdilution", "test system": "ATCC 19606", "conditions": "various colistin salts", "measurement": "MIC", "value": "0.06 µg/mL"}
{"Molecule": "YLFEWVPRL", "target or system": "Jurkat T cells expressing 1G4 TCR", "test": "NFAT-eGFP reporter, flow cytometry", "test system": "peptide", "conditions": "concentration not given, HLA-A*02:01 NY-ESO system", "measurement": "reporter activation", "value": "0.15%"}
{"note": "Some of these lines once more:"}
{"Molecule": "polymyxin B", "target or system": "Escherichia coli", "test": "broth microdilution", "test system": "ATCC 19606", "conditions": "various colistin salts", "measurement": "MIC", "value": "0.06 µg/mL"}
